Published values gathered from unrelated publications.
Compare with care: the assays were run in different laboratories. “And” joins repeats or separate records; there may be more than shown. ± marks the error that the study gave.
rep main protease: Replicase polyprotein 1ab, main protease (rep, Severe acute respiratory syndrome coronavirus 2, UniProt P0DTD1)

Nc1c(C(=O)NCc2ccc(F)cc2F)c(=O)n(O)c2ncc(CCCCCCCCO)cc12 — EC50 (HIV-1; viral replication, single-round infectivity; integrase G140S/Q148H): 7.7 ± 1.9 nM
Cc1[nH]c(/C=C2\C(=O)Nc3ccc(F)cc32)c(C)c1C(=O)NCCN1CCCC1.O=P(O)(O)O — inhibition (rep main protease; reporter gene (Gaussia luciferase), inhibitor; 20 µM): 1.48%
Nc1ccn([C@H]2CC[C@@H](CO)O2)c(=O)n1 — EC50 (HIV-1; viral replication, MAGI; NL4-3 D36G Env-resistant mutant): 771 ± 272 nM
Nc1ncnc2c([C@@H]3N[C@H](CO)[C@@H](O)[C@H]3O)c[nH]c12 — inhibition (Lassa mammarenavirus; viral replication; HeLa, Josiah; 100 µM): 81.6%
Cn1c(Cn2ccc(C(F)(F)F)c(Oc3cc(Cl)cc(C#N)c3)c2=O)n[nH]c1=O — EC50 (HIV-1; viral replication, single-round infection; RT mutant Y181I): 0.6 ± 0.3 nM
CC(C)(C#Cc1ccc(-c2ccc(Cl)c3c(NS(C)(=O)=O)nn(CC(F)(F)F)c23)c([C@@H](CC2CCCCC2)NC(=O)Cn2nc(C(F)(F)F)c3c2C(F)(F)[C@H]2C[C@@H]32)n1)S(C)(=O)=O — EC50 (HIV-1; viral replication): > 40000 nM
O=C1Nc2ccc(Cl)cc2[C@@](C#CC2CC2)(C(F)(F)F)O1 — EC50 (HIV-1; viral replication, single-round infection; RT mutant E40K): 0.3 ± 0.02 nM
Nc1c(C(=O)NCc2ccc(F)cc2F)c(=O)n(O)c2ncc(CCCCCO)cc12 — EC50 (HIV-1; viral replication, single-round infectivity; integrase G140S/Q148H): ~7 nM
NC(=O)CCNC(=O)c1ccccc1S — EC50 (HIV-1; viral replication; human PBMC, subtype E 93TH073, dual-tropic clinical isolate): 2840 ± 2500 nM
COc1cc2c(cc1Cc1cccc(Cl)c1F)c(=O)c(C(=O)O)cn2[C@H](CO)C(C)C — EC50 (HIV-1; viral replication, single-round infectivity; integrase G140S/Q148H): 5700 ± 1100 nM
CC(C)(C#Cc1ccc(-c2ccc(Cl)c3c(NS(C)(=O)=O)nn(CC(F)(F)F)c23)c([C@@H](CC2CC2)NC(=O)Cn2nc(C(F)(F)F)c3c2C(F)(F)[C@@H]2C[C@H]32)n1)S(C)(=O)=O — EC50 (HIV-1; viral replication): 2300 ± 200 nM
Cc1cc(C#N)cc(C)c1Oc1nc(Nc2ccc(C#N)cc2)nc(N)c1Br — EC50 (HIV-1; viral replication; MT4, RES056 K103N+Y181C): 37.9 ± 1.6 nM
CC(C)(C#Cc1ccc(-c2ccc(Cl)c3c(NS(C)(=O)=O)nn(CC(F)(F)F)c23)c([C@H](CC2CCCC2)NC(=O)Cn2nc(C(F)(F)F)c3c2C(F)(F)[C@@H]2C[C@H]32)n1)S(C)(=O)=O — EC50 (HIV-1; viral replication): 5.8 ± 4.2 nM
delavirdine — EC50 (HIV-1; viral replication; MT-2, A17 (Y181C/K103N), NNRTI-resistant): > 3700 nM
Cc1cc(/C=C/C#N)cc(C)c1Nc1ccnc(Nc2ccc(C#N)cc2)n1 — EC50 (HIV-1; viral replication, single-round infection; RT mutant V111A): 0.3 ± 0.1 nM
Cc1cn([C@H]2C[C@H](N=[N+]=[N-])[C@@H](CO)O2)c(=O)[nH]c1=O — EC50 (HIV-1; viral replication; human PBMC, group O BCF01, CCR5-tropic clinical isolate): 2.37 ± 0.08 nM
Cc1cc(/C=C/C#N)cc(C)c1Nc1nc(Nc2ccc3cc(C#N)ccc3c2)ncc1N — EC50 (HIV-1; viral replication, single-round infection; RT mutant K101P): 98.7 ± 14 nM
CC[C@H](C)[C@H](NC(=O)[C@H](CC(C)C)NC(=O)[C@H](Cc1c[nH]c2ccccc12)NC(=O)[C@H](CCC(N)=O)NC(=O)[C@@H](NC(=O)[C@H](Cc1ccccc1)NC(=O)[C@H](C)NC(=O)[C@H](CCCCNC(=O)COCCOCCNC(=O)COCCOCCNC(=O)CC[C@H](NC(=O)CCCCCCCCCCCCCCCCCCC(=O)O)C(=O)O)NC(=O)[C@H](CCC(N)=O)NC(=O)[C@H](C)NC(=O)[C@@H](NC(=O)[C@H](CCCCN)NC(=O)[C@H](CC(=O)O)NC(=O)[C@H](CC(C)C)NC(=O)C(C)(C)NC(=O)[C@@H](NC(=O)[C@H](CO)NC(=O)[C@H](Cc1ccc(O)cc1)NC(=O)[C@H](CC(=O)O)NC(=O)[C@H](CO)NC(=O)[C@@H](NC(=O)[C@H](Cc1ccccc1)NC(=O)[C@@H](NC(=O)CNC(=O)[C@H](CCC(=O)O)NC(=O)C(C)(C)NC(=O)[C@@H](N)Cc1ccc(O)cc1)[C@@H](C)O)[C@@H](C)O)[C@@H](C)CC)[C@@H](C)CC)C(C)C)C(=O)N[C@@H](C)C(=O)NCC(=O)NCC(=O)N1CCC[C@H]1C(=O)N[C@@H](CO)C(=O)N[C@@H](CO)C(=O)NCC(=O)N[C@@H](C)C(=O)N1CCC[C@H]1C(=O)N1CCC[C@H]1C(=O)N1CCC[C@H]1C(=O)N[C@@H](CO)C(N)=O — serum amylase (healthy subjects, single ascending dose; 8.0 mg, day 29): 67.4 ± 23 U/L
CCc1ccccc1NC(=O)CSC(=O)NNC(=O)[C@H](Cc1c[nH]c2ccccc12)NC(=O)OC(C)(C)C — inhibition (rep main protease; viral replication, Gluc reporter; SARS-CoV-2; 20 µM): 1.29%
CNC(=O)[C@@H](NC(=O)[C@H](CC(C)C)[C@H](O)C(=O)NO)C(C)(C)C — inhibition (prothrombin time; human platelet-poor plasma; 1 µM, together with: GA venom): 15% and 12.4% and 14.2%
Cn1cnc(Cn2c(=O)[nH]/c(=N\c3cc4cn(C)nc4cc3Cl)n(Cc3cc(F)c(F)cc3F)c2=O)n1 — any TEAE, mild severity (human, mild renal impairment; oral, 375 mg): 25%
CCCC(=O)OCSc1ccccc1C(=O)NCCC(N)=O — EC50 (HIV-1; viral replication; human PBMC, subtype A 92RW009, CCR5-tropic clinical isolate): 2870 ± 3060 nM
Cc1cc(/C=C/C#N)cc(C)c1Nc1nc(Nc2ccc(/C=C/C#N)cc2)ncc1N — EC50 (HIV-1; viral replication, single-round infection; RT mutant G190S): 0.2 ± 0.06 nM

For quick reference, copied from above:
CC(C)(C#Cc1ccc(-c2ccc(Cl)c3c(NS(C)(=O)=O)nn(CC(F)(F)F)c23)c([C@H](CC2CCCC2)NC(=O)Cn2nc(C(F)(F)F)c3c2C(F)(F)[C@@H]2C[C@H]32)n1)S(C)(=O)=O — EC50 (HIV-1; viral replication): 5.8 ± 4.2 nM
delavirdine — EC50 (HIV-1; viral replication; MT-2, A17 (Y181C/K103N), NNRTI-resistant): > 3700 nM
